{"data": "Assay results pooled from the literature", "note": "Numbered parts are unrelated; each lists some results of a single study. Values joined by “and” are separate records of one study, mostly repeats; a detail may differ. Numbers after ± are the reported error."}
{"data": "Series 1", "Compound": "O=C1NC2(CC2)COc2ncc(F)cc2[C@H]2COCCN2c2ccn3ncc1c3n2", "route": "oral", "time": "4 weeks"}
{"system": "Sprague-Dawley rat, male, brain", "setting": "2.5 mg/kg/day", "organ weight [g]": "2.16 ± 0.08"}
{"system": "Sprague-Dawley rat, male, brain", "setting": "20 mg/kg/day", "organ weight [g]": "2.12 ± 0.106"}
{"system": "Sprague-Dawley rat, male, kidneys", "setting": "10 mg/kg/day", "organ weight [g]": "3.52 ± 1.04"}
{"system": "Sprague-Dawley rat, male, testes", "setting": "5 mg/kg/day", "organ weight [g]": "3.25 ± 0.16"}
{"system": "Sprague-Dawley rat, female, uterus", "setting": "2.5 mg/kg/day", "organ weight [g]": "0.448 ± 0.094"}
{"data": "Mixed results"}
{"Compound": "Cc1ccc(N(C)C2(C)CN(C)C2)cc1C(=O)N[C@H](C)c1cc(-c2cnn(C)c2)nc2ccccc12", "tested on": "Vero E6", "setting": "250 µM", "endpoint": "viability", "result": "0.18% and 0% and 0.541%"}
{"Compound": "CC(C)CC(C(=O)N1CC2(CC1C#N)C(=O)Nc1ccccc12)N(C)C(=O)c1cc2c(F)cc(F)c(F)c2[nH]1 (stereo not shown)", "tested on": "Human coronavirus 229E", "assay": "cytopathic effect", "system": "MRC5", "setting": "0.125 µM", "endpoint": "inhibition", "result": "98.1%"}
{"Compound": "N=C(N)NCCC[C@@H]1NC(=O)[C@H](CCCCNC(=O)CCC(NC(=S)Nc2ccc(CC3CN(CC(=O)O)CCN(CC(=O)O)CCN(CC(=O)O)CCN3CC(=O)O)cc2)C(=O)NCCCC[C@@H]2NC(=O)[C@@H](Cc3ccc(O)cc3)NC(=O)[C@H](CC(=O)O)NC(=O)CNC(=O)[C@H](CCCNC(=N)N)NC2=O)NC(=O)[C@@H](Cc2ccc(O)cc2)NC(=O)[C@H](CC(=O)O)NC(=O)CNC1=O (stereo partly shown) [scandium-44 labelled]", "assay": "PET imaging ROI", "system": "female athymic nude mice, U-87 MG xenograft, muscle", "setting": "intravenous, 4 h, together with: cRGD 50 mg/kg blocking", "endpoint": "tissue uptake", "result": "0.03 ± 0.01 %ID/g"}
{"Compound": "CC(O)CN.O=C(O)C(Cl)Cl", "tested on": "Amaranthus retroflexus", "assay": "herbicidal activity", "setting": "15 mg/mL, 21 days, post-emergence greenhouse", "endpoint": "inhibition", "result": "50%"}
{"Compound": "CC(C)(C)C(=O)OCOP(=O)(OCOC(=O)C(C)(C)C)C1CCCN(O)C1=O (stereo not shown)", "tested on": "HOP-62", "endpoint": "CC50", "result": "> 100 µM"}
{"note": "Some of these lines once more (series 1):"}
{"system": "Sprague-Dawley rat, male, brain", "setting": "2.5 mg/kg/day", "organ weight [g]": "2.16 ± 0.08"}
